Published values of several laboratories.
Numbered parts are unrelated; each lists some results of a single study.

Series 1 — technique: RNA Bind-n-Seq; molecule type: RNA; sample: in vitro; concentration: 200 nM; setting: whole 134-nt RNA, ends assumed; with: 150 mM LiCl; relative to: input library; reading: higher = stronger binding; endpoint: log2 enrichment; each molecule: 7-deaza-guanosine replaces G
Target: Ras GTPase-activating protein-binding protein 1, full length (G3BP1, Homo sapiens, UniProt Q13283)
UniProt Q13283, sequence (whole entry, looked up): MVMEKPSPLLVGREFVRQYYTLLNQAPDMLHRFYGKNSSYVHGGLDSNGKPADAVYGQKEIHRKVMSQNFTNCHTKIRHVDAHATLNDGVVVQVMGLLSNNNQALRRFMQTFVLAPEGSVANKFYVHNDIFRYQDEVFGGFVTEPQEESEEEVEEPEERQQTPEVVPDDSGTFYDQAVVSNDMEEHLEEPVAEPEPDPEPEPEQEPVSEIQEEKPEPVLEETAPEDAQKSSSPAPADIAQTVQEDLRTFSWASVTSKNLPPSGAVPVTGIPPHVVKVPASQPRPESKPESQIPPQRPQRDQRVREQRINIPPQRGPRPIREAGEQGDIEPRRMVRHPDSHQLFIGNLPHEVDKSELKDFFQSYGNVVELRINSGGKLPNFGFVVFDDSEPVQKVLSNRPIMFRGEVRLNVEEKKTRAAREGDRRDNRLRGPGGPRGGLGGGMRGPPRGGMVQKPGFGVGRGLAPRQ
Strand = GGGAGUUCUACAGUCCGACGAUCCAAGUCCUGUGCUACACAUCGUAUGUACCGAAUCGGGAAAGGGUGGGUUUUUGGGAAAGUAUUAUGUUACGCCGUUCGGAUCUGCACUUCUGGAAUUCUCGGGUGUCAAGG; value = -0.382
Strand = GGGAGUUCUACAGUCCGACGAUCGCAGGAAGUAAAAACAAAUGGAAAUGCUUCGGAUAGUGGCAGGGGUGGGGGUUGCUAAGGAAAGGGAAAGAUGGGAGUGGGUAAAGAGUUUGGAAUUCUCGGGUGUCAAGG; value = 0.273
Strand = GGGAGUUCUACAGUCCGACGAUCCAAGUCCUGUGCUACACAUCGUAUGUACCGAAUCGGGUUUUUGGGAGGGUUUGGGAAAGUAUUAUGUUACGCCGUUCGGAUCUGCACUUCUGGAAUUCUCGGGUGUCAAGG; value = -0.263
Strand = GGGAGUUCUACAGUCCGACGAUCGUCCUGUGCUACACAUCGUAUGUACCGAAUCGGGGAGGGGAAAAAAAGGGGAAAGGGGAAAGUAUUAUGUUACGCCGUUCGGAUCUGCACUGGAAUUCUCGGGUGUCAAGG; value = 0.641
Strand = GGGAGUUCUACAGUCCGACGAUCUGGGAGGUGGCUUUUGUUUAUUUUUUUAGCUCAUUUCCAGGGGUGGGAAUUUUUUUUUAAUAUGUGUCAUGAAUAAAGUUGUUUUUGAAAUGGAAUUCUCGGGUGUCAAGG; value = -0.288
Strand = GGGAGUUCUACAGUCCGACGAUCGUCCUGUGCUACACAUCGUAUGUACCGAAUCGGGAAAAAGGGAAAAAGGGAAAAAGGGAAAGUAUUAUGUUACGCCGUUCGGAUCUGCACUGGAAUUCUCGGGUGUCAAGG; value = -0.0871
Strand = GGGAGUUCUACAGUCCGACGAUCUCCUGUGCUACACAUCGUAUGUACCGAAUCGGGAAAAAGGGGAAAAAGGGGAAAAAGGGAAAGUAUUAUGUUACGCCGUUCGGAUCUGCAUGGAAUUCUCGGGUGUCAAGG; value = -0.158
Strand = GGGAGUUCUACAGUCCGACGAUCUGGGAGGUGGAUUUUGUUUAUUUUUUCAGCUCAUUUCCAGGGGUGGGAAUUUUUUUUUAAUAUGUGUCAUGAAUAAAGUUGUUUUUGAAAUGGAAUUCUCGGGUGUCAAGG; value = -0.269

Series 2 — technique: universal PBM; molecule type: double-stranded DNA, one strand shown; sample: in vitro; concentration: not given; reading: higher = stronger binding; endpoint: E-score
Target: Sal-like protein 4, full length isoform B (SALL4, Homo sapiens, UniProt Q9UJQ4-2, residues 1-616)
Setting: 8-mer, flanks averaged, mean of replicates
Strand = AACTACGT; value = 0.0999
Strand = CATAACTC; value = 0.252
Strand = ATTAGGCA; value = 0.154
Strand = CTCTGTCA; value = -0.0314
Strand = GGGCCCAC; value = -0.407
Strand = CCTATACG; value = -0.0202
Strand = GGATCCAC; value = -0.251
Strand = AGTACCTG; value = 0.0123
Strand = CCATTTGA; value = -0.00333
Strand = ACCTAAAA; value = 0.049
Strand = AACCTGCG; value = -0.175
Strand = CCAGATAA; value = 0.18
Strand = CTACAGAC; value = -0.0354
Strand = TTGTTAAA; value = 0.269
Strand = AAGTAAGT; value = 0.194
Strand = AACTAGTG; value = 0.0688
Strand = GCTCTAGA; value = -0.181
Strand = AAGGTGCT; value = -0.1
Strand = GTTCAGGA; value = -0.121
Strand = GGGTCTAC; value = -0.13
Strand = GATCCTGC; value = -0.213
Strand = CTTCATTC; value = 0.0166

Series 3 — technique: RNA Bind-n-Seq; molecule type: RNA; sample: in vitro; concentration: 365 nM; relative to: no-protein control; reading: higher = stronger binding; endpoint: RBNS enrichment (R)
Target: RNA binding protein fox-1 homolog 2, RRM domain, GST-SBP tag (RBFOX2, Homo sapiens, UniProt O43251-10, residues 100-194)
Setting: natural RNA segment, single round, ends assumed
Construct (chain): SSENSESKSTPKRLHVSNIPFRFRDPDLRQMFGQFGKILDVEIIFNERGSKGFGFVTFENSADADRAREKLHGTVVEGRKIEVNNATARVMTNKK
Strand = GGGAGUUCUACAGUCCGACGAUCGUGAGUGUGUGCAACUACUUGUGUGAGGGCAUGGUAGCUAACGUGUGUAUGAGAUCCUAUAUACCAGCAUGUACCAAGAAUGUGUGUGUAGUUUUAAUUAUGCUGCAAUGUGGAAUUCUCGGGUGCCAA; value = 18.1
Strand = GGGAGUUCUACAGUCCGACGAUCCCAAAGUACUGGGAUUACAGGUUCCCUACUUCAGCAAAGCGUGGCAGCGUGUGAUACAGAUACCACUGCUUUCAGGCUCUUGUCCUUUAAGUCCUGAUCAGCUGUCAGAUUGGAAUUCUCGGGUGCCAA; value = 0.239
Strand = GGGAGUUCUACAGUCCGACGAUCUAAAACCAAUUCUGGAAGCAUCUAAGCUUCCAUAAAUAACUUUAAUUCUUAGCAUAAUGACGGCCUUGGAUUGUCUGACCUCAGUAGCUAUUAAAUAACAUCGAGUAACAUGGAAUUCUCGGGUGCCAA; value = 0.495
Strand = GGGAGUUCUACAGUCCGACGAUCGGGCAGGGGAACCCCAAAGUAAGGUGCCAUGGUGUUUGGCACUCAAGAUUUAGCUCACCCUUGAACUGUCCAAGUGCCCGCAGUCCCUAGACUCAUCCCCGUGGGCUAGGUGGAAUUCUCGGGUGCCAA; value = 0.956
Strand = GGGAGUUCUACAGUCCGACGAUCUUUUGCCAUCCCAAUCUUAAGACUGUCUCAUAAUUACCAUGUUGAGGGAAACGCCCCCAGACUCCUGCUGCCACUGUUUUGUGAACUAAUGAACAUGAGCAGAAGCCUAAUGGAAUUCUCGGGUGCCAA; value = 0.577
Strand = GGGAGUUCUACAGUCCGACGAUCAUAAGUUUUAGACAUACAAGUGUCUAUCUCAAAGCAGAAGCAGAGAAAACAGAAAGAAGCUACAACAUGGCUCUAGUGUUGCAAUGUUUUCUAUAAGCACACUGACCUUAUGGAAUUCUCGGGUGCCAA; value = 0.339
Strand = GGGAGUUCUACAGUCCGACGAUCUGAUUUUGUUUUAGCAUUAAACUGUUCAAGUUUUUGUACGUAGAUAUCUAGAUACUGCAGUCAGGUUUGGAAGCUGCCGUACACUCACUGUCUAAAACCCUUGAGGGGCUUGGAAUUCUCGGGUGCCAA; value = 1.08
Strand = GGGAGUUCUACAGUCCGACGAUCAAAGUUAACUUAUGUGACUUGGCAGUUAUUCUAUACCAUUUCCUGUCCAUUAAAAUUUUUAAAGGAACGGUUGUAUUUUAUUAUGUUUUAUGUGACCUUUUGGCCUUUAAUGGAAUUCUCGGGUGCCAA; value = 0.615
Strand = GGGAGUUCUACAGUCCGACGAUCAAAGAAUAUUCCAUUUUCCUUUCCUUGUGGUUGAAAACCACAGUCAGUGGAGAGAUGUUUGGAAACCACAGUCAGUGGAGCCUGGGUGGUACCCAGGCUUUAGCAUUAUUUGGAAUUCUCGGGUGCCAA; value = 0.417

Series 4 — technique: RNA Bind-n-Seq; molecule type: RNA; sample: in vitro; concentration: 100 nM; relative to: input RNA pool; reading: higher = stronger binding; endpoint: bound/input enrichment
Target: RING finger protein unkempt homolog, zinc fingers 1-6, SBP tag (UNK, Homo sapiens, UniProt Q9C0B0, residues 30-357)
UniProt Q9C0B0, sequence (30-357, looked up): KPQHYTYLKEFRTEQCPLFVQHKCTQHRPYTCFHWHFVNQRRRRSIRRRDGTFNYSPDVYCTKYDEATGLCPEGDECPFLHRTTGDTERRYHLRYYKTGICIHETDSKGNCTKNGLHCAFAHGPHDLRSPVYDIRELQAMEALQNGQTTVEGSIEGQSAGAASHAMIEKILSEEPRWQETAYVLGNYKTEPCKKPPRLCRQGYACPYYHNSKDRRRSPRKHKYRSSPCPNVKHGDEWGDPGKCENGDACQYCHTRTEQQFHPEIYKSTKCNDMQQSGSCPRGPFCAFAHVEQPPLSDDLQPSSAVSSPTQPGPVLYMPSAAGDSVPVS
Setting: RNA with constant flanks, vertebrate orthologous sites, ends assumed
Strand = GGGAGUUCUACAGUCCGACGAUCUUGUACUGCGAAAGUCAUCCUACCUCUAAAACUGCACAGUGAUCCCAAACUAGUCUAUAUUAGGGAAUCACUUGCUGUCACAUUGUCAUUGGUGUGUGUCUGAUCCCUGAACUGGUCACACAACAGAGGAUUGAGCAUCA; value = 0.612 ratio
Strand = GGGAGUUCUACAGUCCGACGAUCCACGUCUGGUGAUAUUUGGCCUGGCCUUUCAGCUUAUGAUAAUAGUCCCAGAUCGCCCCAUAGUCCUUCACCAAUCGCUACACCACCUAGUCAGAGUUCAUCUUGCUCUGAUGCCCCCAUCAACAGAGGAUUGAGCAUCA; value = 0.905 ratio
Strand = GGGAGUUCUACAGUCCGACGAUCACAGGAGCAGUACAGGCUGUUUGAUCUUUGGAGAAAUGAGCUUUGCUUUUUAUAUUUAAAUAGGAUACUUUUAUAUGAUGGGUGCUUUGAGUGUGAAUGCAGCAGUCUGUCCAUUUCAGACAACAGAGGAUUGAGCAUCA; value = 1.19 ratio
Strand = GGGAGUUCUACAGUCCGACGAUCAGAGGAUUAGGUUCCAUCCUUUACGUGUUUAAAAAAAAGCAUAAAAACAUUUUAAAAACAUAGAAAAAUUCAGCAAACCAUUUUUAAAGUAGAAGAGGGUUUUAGGUAGAAAAACGUAUUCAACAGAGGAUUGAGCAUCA; value = 0.902 ratio
Strand = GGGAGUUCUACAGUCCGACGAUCGUCCUCUGAUUGGAUGAAGACUGUUCCGAGUUAUAACCAAACAAAUAGCUCCAUGGACUUCAGAAAUUAUAUGAUGAGAGAUGAGAACCUGGAACCACUGCCCAAAAACUGGGAAAUGGCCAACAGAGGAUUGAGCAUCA; value = 0.293 ratio
Strand = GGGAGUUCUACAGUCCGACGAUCGUGUUGGUGCAGAGUGCUCUGUACCAGUGCUCAUCAUCCCUUCUUCAUACCAACUGUCCCUAGUUAUAGGAAUUUAAUAUUUUUAAAAGUUUUACAUUGCUGUAUAUUCAAAGAUUUGUUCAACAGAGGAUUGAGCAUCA; value = 1.02 ratio
Strand = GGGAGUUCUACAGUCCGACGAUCUGGGUUAUUCCUAUUAUUAUCAAGUAGCUGGAAUUGUGAAGGUCGGAGUAGUUAGAUCUUUAGCUUUUAUUCCUUUUUUUUUGUAUUACUAUCCAUGUGUAUAAAUUAUUGAUCAUGUUGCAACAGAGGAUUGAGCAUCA; value = 2.42 ratio
Strand = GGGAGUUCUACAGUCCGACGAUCGUAUUAGUGUCAUACCAGCAUAUUAACCUCCGUCUGUGCACAGCUUCCGACGUUACCGUCUAGUUAGGUUUUUAUUUAAAAGAUGAAAAAACUGCUUUUCCCAAGACGUUUUUUAAAAACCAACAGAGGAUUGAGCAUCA; value = 1.91 ratio
Strand = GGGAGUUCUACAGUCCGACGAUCAAUGCAAGAACUCUUACAGUCUUAGGUGUGAUAACGGCAGAUCUGAACUGUAAGAGUUAUUAGUGCAGGGUUUUUUUUUUUGUUGUUGUUGUUGUUGGUUUUUUUGGGGGGGUACAAGGCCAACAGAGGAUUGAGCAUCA; value = 2.56 ratio
Strand = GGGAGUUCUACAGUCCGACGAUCUGCAAUGCACAACCAUGACCUUGCAUGAUGUGGCUAGACACAGGAGAAAGUUUAAAACAUUACAUCCAAGUUUAACACAUCACAGUGGAACUUCUGUCUCUUUUGUGUUACGUCCAGCCUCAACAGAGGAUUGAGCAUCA; value = 0.37 ratio
Strand = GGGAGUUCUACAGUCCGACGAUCUAUUGUAUGUAGAGAAAAAUUUUCAUUGACUCCCAUUGUGGAAUUCCCUAGCAAUUUAUUUAGACUUAAUUUUUUAAAUUCAAGCUUACUGUAUUAGUCAUUUUUAGCCCAUAAUUAAAACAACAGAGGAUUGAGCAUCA; value = 10.9 ratio

Some of these lines once more (series 3):
Strand = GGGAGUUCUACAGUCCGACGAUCUUUUGCCAUCCCAAUCUUAAGACUGUCUCAUAAUUACCAUGUUGAGGGAAACGCCCCCAGACUCCUGCUGCCACUGUUUUGUGAACUAAUGAACAUGAGCAGAAGCCUAAUGGAAUUCUCGGGUGCCAA; value = 0.577
Strand = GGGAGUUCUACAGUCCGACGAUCAUAAGUUUUAGACAUACAAGUGUCUAUCUCAAAGCAGAAGCAGAGAAAACAGAAAGAAGCUACAACAUGGCUCUAGUGUUGCAAUGUUUUCUAUAAGCACACUGACCUUAUGGAAUUCUCGGGUGCCAA; value = 0.339
Strand = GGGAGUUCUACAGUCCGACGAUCUGAUUUUGUUUUAGCAUUAAACUGUUCAAGUUUUUGUACGUAGAUAUCUAGAUACUGCAGUCAGGUUUGGAAGCUGCCGUACACUCACUGUCUAAAACCCUUGAGGGGCUUGGAAUUCUCGGGUGCCAA; value = 1.08
Strand = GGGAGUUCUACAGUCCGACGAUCAAAGUUAACUUAUGUGACUUGGCAGUUAUUCUAUACCAUUUCCUGUCCAUUAAAAUUUUUAAAGGAACGGUUGUAUUUUAUUAUGUUUUAUGUGACCUUUUGGCCUUUAAUGGAAUUCUCGGGUGCCAA; value = 0.615
Strand = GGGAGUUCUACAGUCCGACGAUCAAAGAAUAUUCCAUUUUCCUUUCCUUGUGGUUGAAAACCACAGUCAGUGGAGAGAUGUUUGGAAACCACAGUCAGUGGAGCCUGGGUGGUACCCAGGCUUUAGCAUUAUUUGGAAUUCUCGGGUGCCAA; value = 0.417
